Measurements collected from several papers.
4'-phosphopantetheinyl transferase PptT: 4'-phosphopantetheinyl transferase PptT (Mycobacterium tuberculosis, UniProt O33336)
UniProt O33336, sequence (whole entry, looked up): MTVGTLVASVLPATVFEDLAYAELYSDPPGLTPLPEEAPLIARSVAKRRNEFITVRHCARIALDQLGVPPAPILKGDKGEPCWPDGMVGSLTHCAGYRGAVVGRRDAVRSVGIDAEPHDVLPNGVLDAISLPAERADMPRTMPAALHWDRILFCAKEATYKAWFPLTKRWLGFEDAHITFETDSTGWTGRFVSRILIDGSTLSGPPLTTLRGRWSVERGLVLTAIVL
UniProt P28222, sequence (whole entry, looked up): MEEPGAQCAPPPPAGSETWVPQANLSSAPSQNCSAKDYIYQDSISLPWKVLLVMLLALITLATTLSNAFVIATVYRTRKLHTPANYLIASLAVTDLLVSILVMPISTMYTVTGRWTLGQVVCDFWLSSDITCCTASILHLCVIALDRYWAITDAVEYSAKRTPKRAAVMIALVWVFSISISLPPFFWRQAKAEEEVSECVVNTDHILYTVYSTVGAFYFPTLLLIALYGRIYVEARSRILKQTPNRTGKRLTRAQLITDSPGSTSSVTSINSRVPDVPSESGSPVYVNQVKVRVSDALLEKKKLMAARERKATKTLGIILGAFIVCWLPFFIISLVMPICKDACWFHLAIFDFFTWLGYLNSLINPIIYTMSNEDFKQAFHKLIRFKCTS
UniProt P40763, sequence (whole entry, looked up): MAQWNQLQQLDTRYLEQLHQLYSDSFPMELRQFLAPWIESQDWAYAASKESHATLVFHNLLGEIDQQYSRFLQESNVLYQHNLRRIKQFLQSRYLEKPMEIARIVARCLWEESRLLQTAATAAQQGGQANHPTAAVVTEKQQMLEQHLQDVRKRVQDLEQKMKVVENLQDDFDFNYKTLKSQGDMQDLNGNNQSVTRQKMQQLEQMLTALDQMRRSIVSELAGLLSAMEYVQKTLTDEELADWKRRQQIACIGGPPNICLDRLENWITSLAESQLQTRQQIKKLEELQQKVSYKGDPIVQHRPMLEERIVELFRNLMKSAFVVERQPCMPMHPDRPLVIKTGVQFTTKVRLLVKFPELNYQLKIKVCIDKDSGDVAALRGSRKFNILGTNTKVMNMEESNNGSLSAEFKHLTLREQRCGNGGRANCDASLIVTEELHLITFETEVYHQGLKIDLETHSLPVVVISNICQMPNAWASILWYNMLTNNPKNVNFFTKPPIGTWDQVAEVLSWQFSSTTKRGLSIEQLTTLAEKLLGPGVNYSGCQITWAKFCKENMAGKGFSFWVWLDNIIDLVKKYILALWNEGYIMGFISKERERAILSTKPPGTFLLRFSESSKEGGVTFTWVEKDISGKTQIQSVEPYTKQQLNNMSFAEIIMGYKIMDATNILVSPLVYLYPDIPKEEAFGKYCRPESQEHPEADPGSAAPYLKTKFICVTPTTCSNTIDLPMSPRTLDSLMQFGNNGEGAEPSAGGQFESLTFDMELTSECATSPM
UniProt Q8NG66, sequence (whole entry, looked up): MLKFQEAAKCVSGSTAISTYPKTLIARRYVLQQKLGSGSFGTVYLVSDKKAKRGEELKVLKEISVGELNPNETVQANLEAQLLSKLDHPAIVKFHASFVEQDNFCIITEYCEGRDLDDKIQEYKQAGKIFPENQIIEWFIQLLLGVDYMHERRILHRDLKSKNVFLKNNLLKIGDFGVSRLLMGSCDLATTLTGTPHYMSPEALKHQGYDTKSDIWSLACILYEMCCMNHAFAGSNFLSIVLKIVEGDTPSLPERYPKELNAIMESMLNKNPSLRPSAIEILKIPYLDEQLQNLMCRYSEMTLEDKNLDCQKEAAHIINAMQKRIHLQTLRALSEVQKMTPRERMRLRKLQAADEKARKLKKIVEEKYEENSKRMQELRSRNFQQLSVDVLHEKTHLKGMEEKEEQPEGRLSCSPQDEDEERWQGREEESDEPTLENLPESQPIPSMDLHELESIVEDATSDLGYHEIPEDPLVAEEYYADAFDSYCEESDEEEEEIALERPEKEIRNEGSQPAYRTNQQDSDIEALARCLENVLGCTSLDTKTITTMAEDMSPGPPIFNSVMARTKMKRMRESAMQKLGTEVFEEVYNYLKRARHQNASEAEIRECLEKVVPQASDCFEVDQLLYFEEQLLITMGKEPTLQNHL
UniProt O00418, sequence (whole entry, looked up): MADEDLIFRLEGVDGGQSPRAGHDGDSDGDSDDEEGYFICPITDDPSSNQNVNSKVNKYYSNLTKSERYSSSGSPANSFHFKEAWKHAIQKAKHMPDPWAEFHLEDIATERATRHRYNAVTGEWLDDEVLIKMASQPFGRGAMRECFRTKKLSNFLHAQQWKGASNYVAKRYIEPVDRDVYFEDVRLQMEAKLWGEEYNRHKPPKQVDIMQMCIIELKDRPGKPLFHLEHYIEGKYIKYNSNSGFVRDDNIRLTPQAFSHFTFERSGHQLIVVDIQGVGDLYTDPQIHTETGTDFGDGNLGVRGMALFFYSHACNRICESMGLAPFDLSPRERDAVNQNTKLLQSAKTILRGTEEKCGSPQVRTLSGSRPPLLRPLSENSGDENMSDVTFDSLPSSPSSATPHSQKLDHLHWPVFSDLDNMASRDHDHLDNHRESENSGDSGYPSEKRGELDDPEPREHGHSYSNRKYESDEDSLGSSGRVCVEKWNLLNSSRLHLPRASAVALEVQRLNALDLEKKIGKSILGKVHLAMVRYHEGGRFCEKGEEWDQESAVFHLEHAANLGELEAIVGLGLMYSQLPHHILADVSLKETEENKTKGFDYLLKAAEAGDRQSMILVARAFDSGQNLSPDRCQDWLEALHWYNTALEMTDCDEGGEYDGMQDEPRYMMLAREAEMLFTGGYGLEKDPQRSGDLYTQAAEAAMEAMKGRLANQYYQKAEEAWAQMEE
UniProt Q9BQI3, sequence (whole entry, looked up): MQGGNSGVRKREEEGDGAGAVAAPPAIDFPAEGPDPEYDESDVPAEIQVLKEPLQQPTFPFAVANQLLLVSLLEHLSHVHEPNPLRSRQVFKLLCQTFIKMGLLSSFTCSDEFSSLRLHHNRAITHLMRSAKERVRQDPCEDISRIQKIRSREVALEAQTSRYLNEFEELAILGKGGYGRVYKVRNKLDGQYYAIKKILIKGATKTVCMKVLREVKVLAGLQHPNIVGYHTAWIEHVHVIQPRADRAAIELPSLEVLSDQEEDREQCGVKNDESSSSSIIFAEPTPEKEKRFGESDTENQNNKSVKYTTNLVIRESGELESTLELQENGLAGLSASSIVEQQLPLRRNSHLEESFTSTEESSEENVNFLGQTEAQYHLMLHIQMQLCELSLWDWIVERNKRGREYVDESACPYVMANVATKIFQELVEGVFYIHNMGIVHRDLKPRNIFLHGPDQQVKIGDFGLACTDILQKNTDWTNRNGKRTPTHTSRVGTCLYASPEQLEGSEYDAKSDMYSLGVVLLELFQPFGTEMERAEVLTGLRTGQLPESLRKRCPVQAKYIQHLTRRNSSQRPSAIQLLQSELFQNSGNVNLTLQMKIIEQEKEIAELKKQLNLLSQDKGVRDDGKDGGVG
UniProt Q00526, sequence (whole entry, looked up): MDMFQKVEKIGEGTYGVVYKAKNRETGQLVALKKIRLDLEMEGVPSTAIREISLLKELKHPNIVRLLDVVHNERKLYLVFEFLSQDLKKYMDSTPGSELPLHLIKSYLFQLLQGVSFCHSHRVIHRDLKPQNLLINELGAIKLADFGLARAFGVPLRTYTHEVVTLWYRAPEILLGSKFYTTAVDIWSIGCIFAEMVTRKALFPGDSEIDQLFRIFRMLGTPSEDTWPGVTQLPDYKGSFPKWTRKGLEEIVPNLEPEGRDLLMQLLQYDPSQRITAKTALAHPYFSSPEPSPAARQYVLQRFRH
UniProt Q01726, sequence (whole entry, looked up): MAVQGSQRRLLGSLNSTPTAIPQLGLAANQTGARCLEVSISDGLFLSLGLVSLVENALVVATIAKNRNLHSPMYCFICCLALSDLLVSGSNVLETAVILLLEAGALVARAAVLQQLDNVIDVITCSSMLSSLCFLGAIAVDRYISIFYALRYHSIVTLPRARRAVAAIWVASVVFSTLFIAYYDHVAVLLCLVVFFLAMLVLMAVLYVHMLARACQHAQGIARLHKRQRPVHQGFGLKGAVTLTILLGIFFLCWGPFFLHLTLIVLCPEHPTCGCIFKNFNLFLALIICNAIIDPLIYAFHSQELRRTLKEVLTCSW
UniProt Q92831, sequence (whole entry, unmodified, looked up): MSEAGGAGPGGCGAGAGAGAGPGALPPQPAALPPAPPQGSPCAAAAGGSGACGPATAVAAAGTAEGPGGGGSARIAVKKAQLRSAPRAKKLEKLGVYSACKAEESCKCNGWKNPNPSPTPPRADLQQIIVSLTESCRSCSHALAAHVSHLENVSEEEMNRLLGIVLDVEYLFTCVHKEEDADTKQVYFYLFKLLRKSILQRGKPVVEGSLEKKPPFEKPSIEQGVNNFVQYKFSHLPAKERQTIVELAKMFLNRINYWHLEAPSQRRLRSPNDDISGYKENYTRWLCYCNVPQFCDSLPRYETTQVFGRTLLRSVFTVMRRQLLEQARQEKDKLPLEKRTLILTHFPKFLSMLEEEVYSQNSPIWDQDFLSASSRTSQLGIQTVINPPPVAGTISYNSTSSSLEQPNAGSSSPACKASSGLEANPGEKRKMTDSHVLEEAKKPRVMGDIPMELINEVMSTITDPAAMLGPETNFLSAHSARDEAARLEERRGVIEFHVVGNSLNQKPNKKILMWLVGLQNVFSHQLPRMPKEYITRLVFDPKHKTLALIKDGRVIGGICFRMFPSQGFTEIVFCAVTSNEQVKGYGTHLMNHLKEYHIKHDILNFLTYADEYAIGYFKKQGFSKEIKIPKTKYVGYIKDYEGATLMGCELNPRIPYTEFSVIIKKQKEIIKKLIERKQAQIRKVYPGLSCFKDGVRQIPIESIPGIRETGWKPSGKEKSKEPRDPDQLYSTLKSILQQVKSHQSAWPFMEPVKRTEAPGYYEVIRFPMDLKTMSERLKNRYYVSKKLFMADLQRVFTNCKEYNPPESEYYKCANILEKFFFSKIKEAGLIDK

SMILES = CN1CCC[C@H]1c1cccnc1; target or system = HTR1B (Homo sapiens, UniProt P28222); test = ligand displacement; conditions = 50 µM; measurement = inhibition; result = 11.7%
SMILES = Cc1nn(C)cc1-c1nc2c(N3CCN(Cc4ccc(Cl)cc4)CC3)c(Cl)cnc2[nH]1; target or system = NEK11 (Homo sapiens, UniProt Q8NG66); test = binding, competition with immobilised ligand; conditions = 1 µM; measurement = remaining binding; result = 100%
SMILES = NC(=O)CC[C@H](NC(=O)[C@@H]1CC[C@@H]2CCN(C(=O)CCCCCC#Cc3cccc4c3CN(C3CCC(=O)NC3=O)C4=O)C[C@H](NC(=O)c3cc4cc(C(=O)P(=O)(O)O)ccc4[nH]3)C(=O)N21)C(=O)NC(c1ccccc1)c1ccccc1 (stereo partly drawn); target or system = STAT3 (Homo sapiens, UniProt P40763); test = protein level, degrader, luciferase; system = HeLa; measurement = Dmax; result = 86 to 88%
SMILES = C#Cc1n[nH]c2c(-c3cn(C(C)c4ccccn4)c(=O)[nH]c3=O)cc(F)cc12 (stereo not drawn); target or system = EEF2K (Homo sapiens, UniProt O00418); test = enzyme activity, inhibitor; conditions = 1 µM; measurement = inhibition; result = 4.5%
SMILES = NC(=O)c1ccc(Cn2c(=S)[nH]c3ccc(Cl)cc3c2=O)cn1; target or system = 4'-phosphopantetheinyl transferase PptT; test = enzyme activity, inhibitor, FP; measurement = IC50; result = 160 nM
SMILES = Nc1ncc(-c2nc(N3CCOCC3)nc(N3CCOCC3)n2)c(C(F)F)n1; target or system = EIF2AK1 (Homo sapiens, UniProt Q9BQI3); test = binding, competition with immobilised ligand; conditions = 10 µM; measurement = remaining binding; result = 85%
SMILES = [2H]c1c([2H])c([C@]2([2H])CCCN2C(=O)C(C)(C)Oc2ccc3cn[nH]c3c2)c([2H])c([2H])c1C([2H])([2H])[2H]; target or system = STK26 (Homo sapiens, UniProt Q9P289); test = binding, competition with immobilised ligand; conditions = 1 µM; measurement = remaining binding; result = 99%
SMILES = COc1ncccc1-c1cnn2ccc(N3CCN(C(=O)OC(C)C)CC3)nc12; target or system = CDK3 (Homo sapiens, UniProt Q00526); test = binding, competition with immobilised ligand; conditions = 1 µM; measurement = remaining binding; result = 92%
SMILES = NC(=O)c1cc2[nH]c(=S)n(Cc3cccnc3)c(=O)c2cc1Cl; target or system = 4'-phosphopantetheinyl transferase PptT; test = enzyme activity, inhibitor, FP; measurement = IC50; result = 3130 nM
SMILES = CCN(CC)CCCC[C@H](NC(=O)[C@H](CC(C)C)NC(=O)[C@H](C)NC(=O)[C@H](Cc1ccccc1)NC(=O)c1ccc(C(C)(C)C)cc1)C(=O)N[C@@H](CO)C(=O)OC; target or system = KAT2B (Homo sapiens, UniProt Q92831); test = thermal stability, DSF; conditions = 25 µM; measurement = ΔTm; result = -0.07 °C
SMILES = CC(C)[C@H]1NC(=O)[C@H](Cc2ccccc2)NC(=O)CNC(=O)[C@@H](Cc2ccccc2)NC(=O)[C@H](CCCCN)NC(=O)[C@@H](CCCN)NC1=O; target or system = Balamuthia mandrillaris; test = parasite growth, ATP luminescence; measurement = IC50; result = > 16 µg/mL
SMILES = CC(C)CC(=O)OC[C@H]1O[C@@](C#N)(c2ccc3c(N)ncnn23)[C@H](O)[C@@H]1O; target or system = MC1R (Homo sapiens, UniProt Q01726); test = cell-free assay; conditions = 20 µM; measurement = inhibition; result = 3%

Repeated from above:
SMILES = CCN(CC)CCCC[C@H](NC(=O)[C@H](CC(C)C)NC(=O)[C@H](C)NC(=O)[C@H](Cc1ccccc1)NC(=O)c1ccc(C(C)(C)C)cc1)C(=O)N[C@@H](CO)C(=O)OC; target or system = KAT2B (Homo sapiens, UniProt Q92831); test = thermal stability, DSF; conditions = 25 µM; measurement = ΔTm; result = -0.07 °C
SMILES = COc1ncccc1-c1cnn2ccc(N3CCN(C(=O)OC(C)C)CC3)nc12; target or system = CDK3 (Homo sapiens, UniProt Q00526); test = binding, competition with immobilised ligand; conditions = 1 µM; measurement = remaining binding; result = 92%
